Assay results of several laboratories.
Compare with care: the assays were run in different laboratories. Values joined by “and” are separate records of one study, mostly repeats; a detail may differ. ± gives the spread as reported.
UniProt P10632, sequence (whole entry, looked up): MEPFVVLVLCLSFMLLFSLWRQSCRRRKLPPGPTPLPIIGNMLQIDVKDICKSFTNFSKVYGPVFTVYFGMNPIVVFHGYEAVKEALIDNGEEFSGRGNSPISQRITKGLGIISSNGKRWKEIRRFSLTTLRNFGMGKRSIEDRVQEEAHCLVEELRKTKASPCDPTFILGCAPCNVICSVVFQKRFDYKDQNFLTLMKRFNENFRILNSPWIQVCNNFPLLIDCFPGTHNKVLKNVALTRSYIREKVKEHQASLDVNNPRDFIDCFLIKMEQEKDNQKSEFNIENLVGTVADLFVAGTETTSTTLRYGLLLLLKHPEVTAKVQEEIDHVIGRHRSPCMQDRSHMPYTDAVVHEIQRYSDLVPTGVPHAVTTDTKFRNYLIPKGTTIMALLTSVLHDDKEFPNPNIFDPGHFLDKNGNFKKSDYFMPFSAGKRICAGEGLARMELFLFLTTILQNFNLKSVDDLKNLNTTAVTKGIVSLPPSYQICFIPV

Structure (SMILES) | target or system | test | test system | conditions | scale | measurement | result
CC(C)=CCC/C(C)=C/CC/C(C)=C/Cc1c(O)cc(CO)c(C=O)c1O | StaI′ (Stachybotrys chartarum) | substrate |  | 30 min, pH 7.5, 40 °C |  | kcat | 0.003 s⁻¹
CC[C@H]1OC(=O)[C@H](C)[C@@H](OC(=O)Cc2ccc(OC)cc2)[C@H](C)[C@@H](O[C@@H]2O[C@H](C)C[C@H](N(C)C)[C@H]2O)[C@](C)(OC)C[C@@H](C)C(=O)[C@H](C)[C@@H](O)[C@]1(C)O | Escherichia coli ribosome | in vitro transcription-translation, inhibitor |  |  |  | IC50 | 0.23 µM
Fc1ccc(Nc2nc(NC3CCCCC3)c3cc(Br)ccc3n2)cc1F | β2AR/β1AR ECL1/3 chimera | β-arrestin2 recruitment, antagonist, BRET |  |  | relative to: isoprenaline maximal response | maximal inhibition | -7.8%
Cc1ncsc1-c1ccc(C(C)NC(=O)C2CC(O)CN2C(=O)C(NC(=O)CCCCCCCCCCN2CCCC(Nc3ncc(Cl)c(Nc4ccccc4S(=O)(=O)C(C)C)n3)C2)C(C)(C)C)cc1 (centres unmarked) | 22Rv1 | RNA-seq, item: SLFNL1-AS1 |  | concentration not given | relative to: DMSO | log2 fold change | -1.12
Fc1ccc(Nc2nc(NC3CCCCC3)c3ccccc3n2)cc1F | β2AR/β1AR ECL1/3 chimera | β-arrestin2 recruitment, antagonist, BRET |  |  | relative to: isoprenaline maximal response | maximal inhibition | -1.4%
Cn1ccc2cc(-n3c(=O)[nH]c4sc5c(c4c3=O)CCCC5)ccc21 | rat P2Y receptor nonselective | radioligand binding |  | 10 µM |  | inhibition | 20%
CN(C)CCOc1cc(NC(=O)c2cccc(C(=O)Nc3cc(OCCN(C)C)c4ccccc4n3)n2)nc2ccccc12 | c-kit1 G-quadruplex DNA | FRET melting |  | 1 µM, pH 7.4, together with: 60 mM potassium |  | ΔTm | 19.2 ± 0.8 K
CC[C@H]1OC(=O)[C@H](C)[C@@H](O[C@H]2C[C@@](C)(OC)[C@@H](O)[C@H](C)O2)[C@H](C)[C@@H](O[C@@H]2O[C@H](C)C[C@H](N(C)C)[C@H]2O)[C@](C)(OC)C[C@@H](C)C(=O)[C@H](C)[C@@H](O)[C@]1(C)O | Escherichia coli ribosome | in vitro transcription-translation, inhibitor |  |  |  | IC50 | 0.41 µM
CC1CCC2C(C)(C)C(O)CCC2(C)C12Cc1c(O)cc(CO)c(C=O)c1O2 (centres unmarked) | StaI (Stachybotrys chartarum) | substrate |  | 30 min, pH 7.0, 45 °C |  | Vmax | 12.3 nmol/min/mg
c1ccc(-c2n[nH]cc2-c2ccnc3ccccc23)nc1 | PTK2 (Candida albicans) | kinase binding, MIB/MS competition | Candida albicans lysate | 1 µM | relative to: DMSO | log2 fold change | 0.1
CCCC[C@H](NC(C)=O)C(=O)N[C@@H](CO)C(=O)N[C@H](C(=O)N1CCC[C@H]1C(=O)N[C@]1(C)CCCCCCC=CCCC[C@@](C)(C(=O)N[C@@H](Cc2ccccc2)C(=O)N[C@@H](CCCCN)C(=O)N[C@@H](CCCNC(=N)N)C(=O)N[C@@H](CC(C)C)C(=O)N[C@@H](CCC(N)=O)C(N)=O)NC(=O)[C@H](CCCNC(=N)N)NC(=O)[C@H](CCCC)NC(=O)[C@H](CC(C)C)NC(=O)[C@H](CCCNC(=N)N)NC(=O)[C@H](CCCNC(=N)N)NC(=O)[C@H](CCCNC(=N)N)NC1=O)[C@@H](C)O | proteinase K | LC-MS |  | 25 µM, 61.5 min, pH 7.4 |  | remaining peptide | 81% and 79.7%
CC1(C)OCCc2cc(C(=O)N3CCC(c4nc(-c5ccccc5)n[nH]4)CC3)ccc21 | FSP1 L323A | resorufin formation, inhibitor |  | together with: NADH, resazurin |  | IC50 | no inhibition
CC(C)=CCCC(C)CN(C)CCc1ccccn1 (centres unmarked) | Trypanosoma cruzi | reporter mRNA translation, inhibitor, item: Renilla luciferase mRNA | cell-free extract | concentration not given, test 1 | relative to: positive over negative control | translation activity | 104%
O=S(=O)(NCc1ccncc1)c1ccc(C2CCCCC2)cc1 | IRF8 (human) | biotin probe pulldown, item: IRF8 |  | 500 µM | relative to: DMSO | protein binding | no effect
CC[C@H]1OC(=O)[C@H](C)[C@@H](OC(=O)Cc2ccccc2[N+](=O)[O-])[C@H](C)[C@@H](O[C@@H]2O[C@H](C)C[C@H](N(C)C)[C@H]2O)[C@](C)(OC)C[C@@H](C)C(=O)[C@H](C)[C@@H](O)[C@]1(C)O | Escherichia coli ribosome | in vitro transcription-translation, inhibitor |  |  |  | IC50 | 0.15 µM
C=CC(=O)N1[C@@H](c2ccc3c(c2)OCO3)c2[nH]c3ccccc3c2C[C@H]1C(=O)N1CCN(C)CC1 | human cyclin E1 wild type-3xFLAG:CDK2 | co-IP with TMT proteomics, item: SRSF3 |  | concentration not given, P84103 | relative to: wild type DMSO | relative co-enrichment | 98%

Structure (SMILES) | target or system | test | test system | conditions | scale | measurement | result
CNC(=O)C1CCCN(C(=O)C2CC3CCC2N3C(=O)[C@@H]2C[C@@H](O)CN2C(=O)NCc2cccc(Cl)c2F)C1 (mixture of isomers) | Cytochrome P450 2C8 (CYP2C8, Homo sapiens, UniProt P10632) | preincubation with NADPH | human | 50 µM | relative to: negative control | remaining activity | 95.7% and 89.4% and 83.2%
C=CC(=O)Nc1cccc(Cn2ncc3cnc(Nc4cnn(CCOC)c4)nc32)c1 | human PRKR | KINOMEscan |  | 100 nM | relative to: control | binding | 99%
Fc1ccc(Nc2nc(NC3CCCCC3)c3cc(C(F)(F)F)ccc3n2)cc1F | β2AR/β1AR TM2 chimera | β-arrestin2 recruitment, antagonist, BRET |  |  | relative to: isoprenaline maximal response | maximal inhibition | 1%
CC1(C)C[N+]2=Cc3ccc4[n]3[Au-]23[n]2c(ccc2-c2nc5ccccc5nc2-4)C=[N+]3C1.F[P-](F)(F)(F)(F)F | human ACTN3 291-bp linear dsDNA | high-resolution melt |  | 10.1 µM |  | melting temperature | 85 °C
Cc1[nH]nc2c1N=C(c1ccccc1Cl)c1cnc(N3CCOCC3)cc1N2 | L-type calcium channel benzothiazepine site, rat | radioligand binding |  | 10 µM |  | inhibition | 27%
C1=NCCCN=Cc2ccc([nH]2)-c2nc3ccccc3nc2-c2ccc1[nH]2 | human ACTN3 291-bp linear dsDNA | high-resolution melt |  | 1.06 µM |  | melting temperature | 83.3 °C
CCCC[C@@H]1NC(=O)[C@@H](CC(C)C)NC(=O)[C@H](CCCCNC(=O)CN2CCN(CC(=O)O)CCN(CC(=O)O)CC2)NC(=O)[C@@H](CO)NC(=O)[C@H](Cc2c[nH]cn2)NC(=O)[C@@H](Cc2c[nH]c3ccccc23)NC1=O [copper-64 labelled] |  |  | Balb/c mice, heart | intravenous, dose not given |  | tissue uptake | 0.19 ± 0.05 %ID/g
Nc1ncc(-c2cc(-c3cnn(CC(F)(F)F)c3)ncc2F)nc1C(=O)NC1CNCC(F)C1 (centres unmarked) | FGFR2 | KINOMEscan |  | 1 µM | relative to: DMSO control | remaining binding | 80%
CNS(=O)(=O)Nc1nccc(Cc2c(C)c3ccc(Oc4ncccc4F)cc3oc2=O)c1F | MP46 | cell viability |  | 7 days |  | IC50 | 0.00271 µM
Cc1ccc(Nc2nc(NCc3ccco3)c3ccccc3n2)cc1 | Trypanosoma cruzi | reporter mRNA translation, inhibitor, item: Renilla luciferase mRNA | cell-free extract | concentration not given, test 1 | relative to: positive over negative control | translation activity | 76.1%
CN1CCCNC(=O)CC2(CCCCC2)CC(=O)NCCCN(C)CCCNc2cccc3c2C(=O)c2cccc(c2C3=O)NCCC1 | telomeric G-quadruplex DNA | DNA thermal stabilisation, CD melting |  | concentration not given, pH 7.4, together with: 100 mM KCl |  | ΔTm | 2.8 ± 1.3 °C
C1=[N+]2CCCC[N+]3=Cc4ccc5[n]4[Au-]23[n]2c1ccc2-c1nc2ccccc2nc1-5.F[P-](F)(F)(F)(F)F | human ACTN3 291-bp linear dsDNA | high-resolution melt |  | 416 nM |  | melting temperature | 83.5 °C
CN1CCCNC(=O)CCC(=O)NCCCN(C)CCCNc2cccc3c2C(=O)c2cccc(c2C3=O)NCCC1 | telomeric G-quadruplex DNA | DNA thermal stabilisation, CD melting |  | concentration not given, pH 7.4, together with: 100 mM KCl |  | ΔTm | 2.8 ± 0.1 °C
CC(C)c1ccc(N(C)c2ccc3c(c2)OCC[C@H]3CNc2cnccc2C(=O)O)cc1 | MC116 | cell viability, CellTiter-Glo |  | 7 days |  | IC50 | 0.00461 µM
C=C(NC(=O)c1csc(-c2cccnc2)n1)C(=O)NC(=C)C(=O)OC | human PRX1 C71S/C83S/C173S | MALDI-TOF |  | 200 µM, pH 8 |  | protein forming monoadduct | > 95%
COC1CN([C@H]2CC[C@H]([C@@]3(C)Oc4c(Cl)cc(C(=O)NCc5c(SC)cc(C)[nH]c5=O)c(C)c4O3)CC2)C1 |  | RNA-seq, item: MDK mouse homolog | mouse, HT-1376 xenograft, whole blood | dose not given | relative to: vehicle | log2 fold change | 1.39

Some of these lines once more:
Structure (SMILES) | target or system | test | test system | conditions | scale | measurement | result
CNS(=O)(=O)Nc1nccc(Cc2c(C)c3ccc(Oc4ncccc4F)cc3oc2=O)c1F | MP46 | cell viability |  | 7 days |  | IC50 | 0.00271 µM
CCCC[C@@H]1NC(=O)[C@@H](CC(C)C)NC(=O)[C@H](CCCCNC(=O)CN2CCN(CC(=O)O)CCN(CC(=O)O)CC2)NC(=O)[C@@H](CO)NC(=O)[C@H](Cc2c[nH]cn2)NC(=O)[C@@H](Cc2c[nH]c3ccccc23)NC1=O [copper-64 labelled] |  |  | Balb/c mice, heart | intravenous, dose not given |  | tissue uptake | 0.19 ± 0.05 %ID/g
CN1CCCNC(=O)CC2(CCCCC2)CC(=O)NCCCN(C)CCCNc2cccc3c2C(=O)c2cccc(c2C3=O)NCCC1 | telomeric G-quadruplex DNA | DNA thermal stabilisation, CD melting |  | concentration not given, pH 7.4, together with: 100 mM KCl |  | ΔTm | 2.8 ± 1.3 °C
C=C(NC(=O)c1csc(-c2cccnc2)n1)C(=O)NC(=C)C(=O)OC | human PRX1 C71S/C83S/C173S | MALDI-TOF |  | 200 µM, pH 8 |  | protein forming monoadduct | > 95%
